# Results from different studies.
# Each numbered part is a random draw from the data of one study; scales do not carry over between parts. Substitutions count along the parent as printed.
# Sequence of UniProt O14965 (whole entry, looked up): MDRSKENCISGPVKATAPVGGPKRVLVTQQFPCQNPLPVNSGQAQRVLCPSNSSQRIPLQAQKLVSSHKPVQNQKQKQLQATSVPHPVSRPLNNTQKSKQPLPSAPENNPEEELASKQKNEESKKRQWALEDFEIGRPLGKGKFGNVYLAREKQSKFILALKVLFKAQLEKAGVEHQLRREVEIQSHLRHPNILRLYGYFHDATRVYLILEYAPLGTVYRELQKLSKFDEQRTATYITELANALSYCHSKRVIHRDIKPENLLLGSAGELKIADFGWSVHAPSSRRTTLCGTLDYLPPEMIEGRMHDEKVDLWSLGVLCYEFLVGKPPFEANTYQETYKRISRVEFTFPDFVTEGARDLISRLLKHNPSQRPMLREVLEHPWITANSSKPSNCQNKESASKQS
# Sequence of UniProt P21709 (whole entry, looked up): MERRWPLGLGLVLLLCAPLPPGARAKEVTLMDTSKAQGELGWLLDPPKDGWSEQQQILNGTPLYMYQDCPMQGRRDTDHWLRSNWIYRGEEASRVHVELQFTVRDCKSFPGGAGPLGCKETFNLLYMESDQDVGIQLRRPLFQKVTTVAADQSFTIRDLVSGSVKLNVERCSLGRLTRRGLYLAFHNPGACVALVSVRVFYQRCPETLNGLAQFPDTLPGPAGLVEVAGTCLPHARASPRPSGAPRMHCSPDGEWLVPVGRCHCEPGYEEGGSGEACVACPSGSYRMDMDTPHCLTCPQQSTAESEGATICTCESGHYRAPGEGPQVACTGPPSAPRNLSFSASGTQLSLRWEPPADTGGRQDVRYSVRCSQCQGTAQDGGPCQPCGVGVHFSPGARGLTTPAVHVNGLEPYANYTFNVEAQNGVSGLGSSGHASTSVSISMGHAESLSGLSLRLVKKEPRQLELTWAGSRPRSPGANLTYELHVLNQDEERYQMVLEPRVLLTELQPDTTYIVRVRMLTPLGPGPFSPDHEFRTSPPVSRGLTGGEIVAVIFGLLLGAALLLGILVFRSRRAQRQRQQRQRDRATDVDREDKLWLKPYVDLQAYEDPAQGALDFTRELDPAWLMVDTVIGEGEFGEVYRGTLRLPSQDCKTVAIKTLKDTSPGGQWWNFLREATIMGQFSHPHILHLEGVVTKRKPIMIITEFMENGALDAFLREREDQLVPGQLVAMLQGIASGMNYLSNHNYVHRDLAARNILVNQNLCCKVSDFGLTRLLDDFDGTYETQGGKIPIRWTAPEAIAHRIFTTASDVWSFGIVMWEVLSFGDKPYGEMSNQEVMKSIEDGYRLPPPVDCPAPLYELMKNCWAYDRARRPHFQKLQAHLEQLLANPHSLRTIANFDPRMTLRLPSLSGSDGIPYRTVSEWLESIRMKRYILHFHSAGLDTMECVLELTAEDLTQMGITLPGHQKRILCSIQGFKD
# Sequence of UniProt Q8NEV4 (whole entry, looked up): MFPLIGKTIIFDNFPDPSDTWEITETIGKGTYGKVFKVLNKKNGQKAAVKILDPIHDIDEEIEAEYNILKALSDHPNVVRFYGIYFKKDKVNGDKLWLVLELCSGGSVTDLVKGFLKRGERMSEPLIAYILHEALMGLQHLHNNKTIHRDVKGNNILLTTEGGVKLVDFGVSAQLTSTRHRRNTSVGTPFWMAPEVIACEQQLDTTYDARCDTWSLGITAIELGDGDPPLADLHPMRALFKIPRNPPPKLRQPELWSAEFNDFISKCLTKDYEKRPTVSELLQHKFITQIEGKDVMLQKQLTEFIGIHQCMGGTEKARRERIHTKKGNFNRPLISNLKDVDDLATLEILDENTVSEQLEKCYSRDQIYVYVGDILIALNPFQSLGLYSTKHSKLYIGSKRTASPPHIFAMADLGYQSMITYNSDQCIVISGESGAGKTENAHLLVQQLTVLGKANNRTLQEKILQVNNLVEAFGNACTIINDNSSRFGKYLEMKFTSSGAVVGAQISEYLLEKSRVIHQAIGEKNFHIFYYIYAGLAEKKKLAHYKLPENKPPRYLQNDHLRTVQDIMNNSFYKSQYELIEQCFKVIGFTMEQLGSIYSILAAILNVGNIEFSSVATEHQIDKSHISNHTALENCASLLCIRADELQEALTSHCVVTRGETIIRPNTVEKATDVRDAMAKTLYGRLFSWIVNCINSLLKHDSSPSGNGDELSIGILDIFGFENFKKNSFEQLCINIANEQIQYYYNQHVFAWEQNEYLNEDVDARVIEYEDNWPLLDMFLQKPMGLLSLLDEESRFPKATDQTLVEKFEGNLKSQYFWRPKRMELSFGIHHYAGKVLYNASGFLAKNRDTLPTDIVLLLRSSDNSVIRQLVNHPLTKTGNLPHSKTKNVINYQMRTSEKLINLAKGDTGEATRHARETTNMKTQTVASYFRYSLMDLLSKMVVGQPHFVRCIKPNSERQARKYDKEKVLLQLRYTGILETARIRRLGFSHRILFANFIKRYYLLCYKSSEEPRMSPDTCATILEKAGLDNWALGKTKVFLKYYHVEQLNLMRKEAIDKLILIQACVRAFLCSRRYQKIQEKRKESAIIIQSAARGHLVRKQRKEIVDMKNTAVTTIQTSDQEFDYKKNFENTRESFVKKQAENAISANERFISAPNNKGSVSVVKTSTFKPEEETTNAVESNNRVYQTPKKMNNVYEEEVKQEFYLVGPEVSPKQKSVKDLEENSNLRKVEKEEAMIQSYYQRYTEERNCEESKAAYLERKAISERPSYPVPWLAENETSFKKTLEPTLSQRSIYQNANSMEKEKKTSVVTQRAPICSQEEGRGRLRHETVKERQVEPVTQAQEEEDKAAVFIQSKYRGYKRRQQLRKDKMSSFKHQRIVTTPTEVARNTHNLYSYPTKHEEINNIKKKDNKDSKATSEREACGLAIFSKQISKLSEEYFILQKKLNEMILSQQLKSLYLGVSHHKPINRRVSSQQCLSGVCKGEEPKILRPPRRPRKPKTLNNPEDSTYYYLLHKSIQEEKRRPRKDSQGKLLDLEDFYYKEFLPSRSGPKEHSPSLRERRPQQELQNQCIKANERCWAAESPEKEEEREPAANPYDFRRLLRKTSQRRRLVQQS
# Sequence of UniProt Q8TDX7 (whole entry, looked up): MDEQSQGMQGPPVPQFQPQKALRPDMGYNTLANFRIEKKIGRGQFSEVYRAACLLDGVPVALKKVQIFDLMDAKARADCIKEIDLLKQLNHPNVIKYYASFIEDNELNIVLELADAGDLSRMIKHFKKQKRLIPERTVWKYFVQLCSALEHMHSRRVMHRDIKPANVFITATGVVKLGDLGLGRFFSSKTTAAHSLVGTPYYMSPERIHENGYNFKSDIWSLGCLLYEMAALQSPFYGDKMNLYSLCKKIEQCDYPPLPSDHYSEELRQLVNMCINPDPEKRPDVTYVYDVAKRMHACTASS
# Sequence of UniProt P57078 (whole entry, looked up): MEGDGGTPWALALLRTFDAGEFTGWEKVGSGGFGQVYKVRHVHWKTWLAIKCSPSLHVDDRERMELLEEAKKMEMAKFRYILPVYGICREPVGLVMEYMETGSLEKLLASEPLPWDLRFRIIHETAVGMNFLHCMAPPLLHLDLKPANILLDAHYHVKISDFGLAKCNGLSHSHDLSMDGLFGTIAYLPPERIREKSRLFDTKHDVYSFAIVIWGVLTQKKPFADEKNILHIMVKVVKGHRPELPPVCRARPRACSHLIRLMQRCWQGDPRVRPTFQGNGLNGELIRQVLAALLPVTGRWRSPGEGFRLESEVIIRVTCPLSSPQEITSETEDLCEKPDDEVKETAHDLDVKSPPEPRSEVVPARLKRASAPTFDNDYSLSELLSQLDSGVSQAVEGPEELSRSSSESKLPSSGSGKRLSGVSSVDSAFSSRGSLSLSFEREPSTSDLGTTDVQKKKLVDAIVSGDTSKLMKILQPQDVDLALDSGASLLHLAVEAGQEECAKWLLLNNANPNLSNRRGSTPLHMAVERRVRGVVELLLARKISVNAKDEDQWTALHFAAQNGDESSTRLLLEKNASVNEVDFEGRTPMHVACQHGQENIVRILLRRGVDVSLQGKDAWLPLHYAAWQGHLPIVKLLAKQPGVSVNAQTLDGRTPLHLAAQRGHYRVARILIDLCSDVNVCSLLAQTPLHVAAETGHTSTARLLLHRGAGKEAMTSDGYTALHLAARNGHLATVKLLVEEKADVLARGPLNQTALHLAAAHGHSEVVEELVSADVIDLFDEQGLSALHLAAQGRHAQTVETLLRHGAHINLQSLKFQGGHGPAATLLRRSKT

# Series 1 — target: ATF5, bZIP domain (human); method: DHFR protein complementation; matrix: yeast; relative to: wild-type JUN-FOS pair; direction: higher = stronger binding
# Setting: single substitutions, most at no-binding floor
# Starting sequence: JUN, bZIP domain (human); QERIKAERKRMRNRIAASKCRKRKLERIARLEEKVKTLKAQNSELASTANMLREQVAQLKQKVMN; partner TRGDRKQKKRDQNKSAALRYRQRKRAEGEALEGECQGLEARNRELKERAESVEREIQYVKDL
Change,binding fitness
K34D,-1.55 natural log
L38V,-1.51 natural log
Q41H,-1.48 natural log
T48Y,-1.53 natural log
L38N,-1.49 natural log
L31C,-1.52 natural log
L52S,-1.55 natural log
A29Y,-1.33 natural log

# Series 2 — read-out: enzyme activity; action: inhibitor; tested at: 0.5 µM; relative to: control
# Target: Serine/threonine-protein kinase DCLK2 (DCLK2, Homo sapiens, UniProt Q8N568)
# Sequence of UniProt Q8N568 (whole entry, looked up): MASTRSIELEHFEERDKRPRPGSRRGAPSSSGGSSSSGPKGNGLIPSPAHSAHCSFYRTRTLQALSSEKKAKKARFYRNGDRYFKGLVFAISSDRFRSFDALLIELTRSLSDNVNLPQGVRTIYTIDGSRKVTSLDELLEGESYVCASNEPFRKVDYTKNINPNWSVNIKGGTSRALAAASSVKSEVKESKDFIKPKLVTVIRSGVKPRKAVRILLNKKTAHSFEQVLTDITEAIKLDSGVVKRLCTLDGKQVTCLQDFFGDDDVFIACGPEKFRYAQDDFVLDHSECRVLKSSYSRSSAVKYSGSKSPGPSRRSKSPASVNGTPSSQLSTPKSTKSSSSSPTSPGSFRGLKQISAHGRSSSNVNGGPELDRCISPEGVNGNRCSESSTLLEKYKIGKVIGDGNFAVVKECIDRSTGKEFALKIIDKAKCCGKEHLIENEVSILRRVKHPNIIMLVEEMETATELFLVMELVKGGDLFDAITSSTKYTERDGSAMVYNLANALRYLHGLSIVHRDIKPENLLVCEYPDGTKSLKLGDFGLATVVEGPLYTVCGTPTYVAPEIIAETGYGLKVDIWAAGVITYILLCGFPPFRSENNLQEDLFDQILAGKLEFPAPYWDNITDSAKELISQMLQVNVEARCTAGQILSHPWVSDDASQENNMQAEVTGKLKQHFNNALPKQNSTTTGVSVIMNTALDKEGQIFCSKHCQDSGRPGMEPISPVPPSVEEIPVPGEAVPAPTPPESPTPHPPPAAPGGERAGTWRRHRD
Structure (SMILES),remaining activity [%]
O=S(=O)(c1cccc2cnccc12)N1CCCNCC1,83.9
OCC(O)CCON=C1C(c2c(O)[nH]c3ccccc23)=Nc2ccccc21 (stereo not shown),86.4
NCCNc1ncc(C(N)=O)c(Nc2cccc(C(F)(F)F)c2)n1,92.8
Cc1nc(-c2ccccc2)c(-c2ccncc2)o1,97
COc1cc2ncnc(Nc3ccc(F)c(Cl)c3)c2cc1OCCCN1CCOCC1,101
Cn1sc(=O)n(Cc2ccccc2)c1=O,98.5
C#Cc1cccc(Nc2ncnc3cc(OCCOC)c(OCCOC)cc23)c1,102
Cc1ccc(Nc2nccc(N(C)c3ccc4c(C)n(C)nc4c3)n2)cc1S(N)(=O)=O,102
O=C1NC(=O)C(c2cn(CCCn3ccnc3)c3ccccc23)=C1Nc1ccccc1,96.3
COc1ccc(CNC(=O)Nc2ncc([N+](=O)[O-])s2)cc1,99.2
N#CC(C#N)=C(N)/C(C#N)=C/c1ccc(O)cc1,101
O=C(Nc1cccc(Nc2cc(Nc3cccc(C(F)(F)F)c3)ncn2)c1)C1CC1,101

# Series 3 — tested at: 1 µM
# Compound: CN([C@@H]1CCc2c(CC(=O)O)c3ccccc3n2C1)S(=O)(=O)c1ccc(F)cc1
target,read-out,method,remaining binding
"Receptor-type tyrosine-protein kinase FLT3 (FLT3, Homo sapiens, UniProt P36888, D835V)",cell-free assay,competition with immobilised ligand,94%
"Aurora kinase A (AURKA, Homo sapiens, UniProt O14965)",cell-free assay,competition with immobilised ligand,100%
"Receptor-interacting serine/threonine-protein kinase 4 (RIPK4, Homo sapiens, UniProt P57078)",cell-free assay,competition with immobilised ligand,85%
"Cyclin-G-associated kinase (GAK, Homo sapiens, UniProt O14976)",cell-free assay,competition with immobilised ligand,100%
"Serine/threonine-protein kinase Nek4 (NEK4, Homo sapiens, UniProt P51957)",cell-free assay,competition with immobilised ligand,100%
"Ephrin type-B receptor 2 (EPHB2, Homo sapiens, UniProt P29323)",cell-free assay,competition with immobilised ligand,100%
"Serine/threonine-protein kinase 32A (STK32A, Homo sapiens, UniProt Q8WU08)",cell-free assay,competition with immobilised ligand,100%
"Serine/threonine-protein kinase VRK2 (VRK2, Homo sapiens, UniProt Q86Y07)",cell-free assay,competition with immobilised ligand,100%
"Serine/threonine-protein kinase SIK1 (SIK1, Homo sapiens, UniProt P57059)",,competition binding,71%
"Serine/threonine-protein kinase Sgk2 (SGK2, Homo sapiens, UniProt Q9HBY8)",cell-free assay,competition with immobilised ligand,100%
"Ephrin type-A receptor 1 (EPHA1, Homo sapiens, UniProt P21709)",cell-free assay,competition with immobilised ligand,100%
"Proto-oncogene tyrosine-protein kinase receptor Ret (RET, Homo sapiens, UniProt P07949, M918T)",cell-free assay,competition with immobilised ligand,97%
"cAMP-dependent protein kinase catalytic subunit PRKX (PRKX, Homo sapiens, UniProt P51817)",cell-free assay,competition with immobilised ligand,100%
"Serine/threonine-protein kinase Nek6 (NEK6, Homo sapiens, UniProt Q9HC98)",cell-free assay,competition with immobilised ligand,99%
"Phosphatidylinositol 3-kinase catalytic subunit type 3 (PIK3C3, Homo sapiens, UniProt Q8NEB9)",cell-free assay,competition with immobilised ligand,97%
"Myosin-IIIa (MYO3A, Homo sapiens, UniProt Q8NEV4)",binding,competition with immobilised ligand,100%
"Cyclin-dependent kinase 14 (CDK14, Homo sapiens, UniProt O94921)",cell-free assay,competition with immobilised ligand,100%
"Tyrosine-protein kinase Fer (FER, Homo sapiens, UniProt P16591)",cell-free assay,competition with immobilised ligand,100%
"Tyrosine-protein kinase Blk (BLK, Homo sapiens, UniProt P51451)",cell-free assay,competition with immobilised ligand,100%
"Calcium/calmodulin-dependent protein kinase type II subunit delta (CAMK2D, Homo sapiens, UniProt Q13557)",cell-free assay,competition with immobilised ligand,100%
"Serine/threonine-protein kinase Nek7 (NEK7, Homo sapiens, UniProt Q8TDX7)",cell-free assay,competition with immobilised ligand,100%
"Phosphatidylinositol 5-phosphate 4-kinase type-2 beta (PIP4K2B, Homo sapiens, UniProt P78356)",cell-free assay,competition with immobilised ligand,80%
"Serine/threonine-protein kinase PAK 1 (PAK1, Homo sapiens, UniProt Q13153)",cell-free assay,competition with immobilised ligand,96%
"Receptor tyrosine-protein kinase erbB-4 (ERBB4, Homo sapiens, UniProt Q15303)",cell-free assay,competition with immobilised ligand,100%

# Series 4 — method: protein-binding microarray; molecule type: double-stranded DNA, one strand shown; matrix: in vitro; tested at: 250 nM; setting: 60-bp whole probe; together with: salmon DNA 0.4 mg/ml; relative to: random background probes; direction: higher = stronger binding; constant ends, left off below: GCCTAGCAC … GTCTTGATTCGCTTGACGCTGCTG
# Target: Interferon regulatory factor 7, full length, phosphomimetic (IRF7, Homo sapiens, UniProt Q92985, residues 1-503, S101K/S471D/S472D/S475D/S476D/S477D/S483D/S484D/S487D)
# Target sequence (chain): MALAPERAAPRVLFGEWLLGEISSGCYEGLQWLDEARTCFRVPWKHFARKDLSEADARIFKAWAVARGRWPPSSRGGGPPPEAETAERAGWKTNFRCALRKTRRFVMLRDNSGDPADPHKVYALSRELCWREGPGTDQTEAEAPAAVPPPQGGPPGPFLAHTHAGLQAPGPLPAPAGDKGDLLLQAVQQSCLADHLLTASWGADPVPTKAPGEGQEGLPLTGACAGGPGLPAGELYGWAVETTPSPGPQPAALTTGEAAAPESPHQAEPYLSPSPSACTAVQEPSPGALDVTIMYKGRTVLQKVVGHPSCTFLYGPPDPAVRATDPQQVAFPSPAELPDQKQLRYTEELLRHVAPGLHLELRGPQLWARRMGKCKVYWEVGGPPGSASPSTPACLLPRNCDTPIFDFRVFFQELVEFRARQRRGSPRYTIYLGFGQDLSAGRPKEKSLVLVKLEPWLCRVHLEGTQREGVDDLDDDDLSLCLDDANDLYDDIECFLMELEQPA
Strand,log fluorescence
ATAGGACTGGGGTATCGGTTAGTGCTA,0.252 z-score
CTGTTTTTGCTTTCTTTATGGTGCTAG,3.33 z-score
GACGGACTGCTTTTCCTGCCGTGCTAG,-0.133 z-score
GACGATTTCGGGTATCGCGACGTGCTA,0.471 z-score
GACGAACTGGAGACTGGAGACGTGCTA,-0.45 z-score
GACGGACTTGGTATCGGGACGTGCTAG,0.0746 z-score
TCTTTTTGCTTTCTTTATGCGTGCTAG,2.23 z-score
GACGGTTTGGGTTTCGGGACGTGCTAG,2.04 z-score
